Assay results gathered from unrelated publications.
“And” joins repeats or separate records; there may be more than shown. Numbers after ± are the reported error.
Aryl hydrocarbon receptor: Aryl hydrocarbon receptor (Danio rerio, UniProt Q9YGV3)
GUK1: GUK1 (Homo sapiens, UniProt Q16774)
Chain of UniProt Q16774 (whole entry, looked up): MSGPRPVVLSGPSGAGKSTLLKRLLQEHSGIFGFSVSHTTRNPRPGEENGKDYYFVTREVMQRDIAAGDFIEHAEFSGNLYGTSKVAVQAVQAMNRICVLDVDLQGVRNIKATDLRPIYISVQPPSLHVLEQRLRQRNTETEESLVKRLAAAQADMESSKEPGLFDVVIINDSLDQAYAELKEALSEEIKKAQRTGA
SNCA: Alpha-synuclein (SNCA, Homo sapiens, UniProt P37840)
Chain of UniProt O76090 (whole entry, unmodified, looked up): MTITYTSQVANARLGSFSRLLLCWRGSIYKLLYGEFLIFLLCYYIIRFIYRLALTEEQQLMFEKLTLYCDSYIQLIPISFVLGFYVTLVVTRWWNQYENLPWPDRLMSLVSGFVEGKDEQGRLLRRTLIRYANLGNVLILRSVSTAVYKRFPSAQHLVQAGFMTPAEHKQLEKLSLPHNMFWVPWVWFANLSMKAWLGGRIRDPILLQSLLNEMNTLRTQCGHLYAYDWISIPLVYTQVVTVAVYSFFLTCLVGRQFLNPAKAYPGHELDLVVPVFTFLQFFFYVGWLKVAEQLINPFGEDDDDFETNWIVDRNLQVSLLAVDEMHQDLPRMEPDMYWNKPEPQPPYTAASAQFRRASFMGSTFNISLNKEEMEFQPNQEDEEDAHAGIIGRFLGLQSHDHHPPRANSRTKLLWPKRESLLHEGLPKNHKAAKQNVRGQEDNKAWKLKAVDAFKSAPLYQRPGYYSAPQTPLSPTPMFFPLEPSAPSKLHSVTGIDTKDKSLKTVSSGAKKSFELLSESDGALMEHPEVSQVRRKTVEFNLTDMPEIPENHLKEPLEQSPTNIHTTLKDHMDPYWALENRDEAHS
Chain of UniProt P51575 (whole entry, unmodified, looked up): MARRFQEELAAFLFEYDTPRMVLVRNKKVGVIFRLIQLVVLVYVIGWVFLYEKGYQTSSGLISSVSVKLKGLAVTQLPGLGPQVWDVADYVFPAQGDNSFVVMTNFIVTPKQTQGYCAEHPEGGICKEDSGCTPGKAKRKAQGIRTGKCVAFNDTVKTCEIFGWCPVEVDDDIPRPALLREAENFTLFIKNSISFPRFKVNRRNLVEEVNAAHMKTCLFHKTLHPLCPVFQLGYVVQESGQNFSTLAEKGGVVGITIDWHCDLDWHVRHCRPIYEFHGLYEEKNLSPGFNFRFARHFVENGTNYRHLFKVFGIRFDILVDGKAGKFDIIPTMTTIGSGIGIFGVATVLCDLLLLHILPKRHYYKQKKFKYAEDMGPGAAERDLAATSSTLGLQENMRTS
Chain of UniProt Q01105 (whole entry, unmodified, looked up): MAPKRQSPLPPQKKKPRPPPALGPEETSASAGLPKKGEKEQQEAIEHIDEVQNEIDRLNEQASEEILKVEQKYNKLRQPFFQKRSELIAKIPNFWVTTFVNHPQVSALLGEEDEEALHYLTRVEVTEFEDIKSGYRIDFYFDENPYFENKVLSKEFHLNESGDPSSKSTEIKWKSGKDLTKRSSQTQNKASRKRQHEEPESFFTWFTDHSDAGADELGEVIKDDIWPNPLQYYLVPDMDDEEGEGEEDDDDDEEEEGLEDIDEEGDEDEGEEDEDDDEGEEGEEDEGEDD
Chain of UniProt P00519 (whole entry, unmodified, looked up): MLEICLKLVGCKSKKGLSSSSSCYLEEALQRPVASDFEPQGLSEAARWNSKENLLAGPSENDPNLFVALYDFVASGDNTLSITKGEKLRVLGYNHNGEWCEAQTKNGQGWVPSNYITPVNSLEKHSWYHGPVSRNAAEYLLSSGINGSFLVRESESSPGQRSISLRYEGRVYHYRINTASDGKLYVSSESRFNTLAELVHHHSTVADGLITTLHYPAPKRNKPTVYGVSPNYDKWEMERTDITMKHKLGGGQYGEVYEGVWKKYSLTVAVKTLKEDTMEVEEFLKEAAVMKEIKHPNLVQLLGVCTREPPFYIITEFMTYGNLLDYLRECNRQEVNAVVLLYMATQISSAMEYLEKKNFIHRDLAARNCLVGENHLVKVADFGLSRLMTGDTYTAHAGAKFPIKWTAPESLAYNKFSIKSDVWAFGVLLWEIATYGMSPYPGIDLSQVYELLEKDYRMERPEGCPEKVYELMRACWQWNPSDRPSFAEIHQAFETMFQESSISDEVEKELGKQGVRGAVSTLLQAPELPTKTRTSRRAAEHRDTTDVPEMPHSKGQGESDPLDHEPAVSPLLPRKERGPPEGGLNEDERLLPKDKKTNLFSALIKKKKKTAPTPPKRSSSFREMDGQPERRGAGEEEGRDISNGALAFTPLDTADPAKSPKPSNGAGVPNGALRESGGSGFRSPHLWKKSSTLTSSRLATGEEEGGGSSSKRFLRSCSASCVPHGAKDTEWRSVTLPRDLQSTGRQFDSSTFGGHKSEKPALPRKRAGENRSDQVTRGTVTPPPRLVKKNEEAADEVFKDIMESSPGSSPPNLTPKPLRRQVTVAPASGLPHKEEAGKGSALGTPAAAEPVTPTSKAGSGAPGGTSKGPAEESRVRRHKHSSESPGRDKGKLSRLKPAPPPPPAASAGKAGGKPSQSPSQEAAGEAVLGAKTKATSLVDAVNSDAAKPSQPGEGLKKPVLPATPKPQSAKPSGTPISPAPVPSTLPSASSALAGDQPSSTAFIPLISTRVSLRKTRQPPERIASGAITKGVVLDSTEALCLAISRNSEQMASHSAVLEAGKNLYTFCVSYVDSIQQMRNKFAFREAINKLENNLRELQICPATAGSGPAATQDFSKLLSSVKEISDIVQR
Chain of UniProt P35869 (whole entry, looked up): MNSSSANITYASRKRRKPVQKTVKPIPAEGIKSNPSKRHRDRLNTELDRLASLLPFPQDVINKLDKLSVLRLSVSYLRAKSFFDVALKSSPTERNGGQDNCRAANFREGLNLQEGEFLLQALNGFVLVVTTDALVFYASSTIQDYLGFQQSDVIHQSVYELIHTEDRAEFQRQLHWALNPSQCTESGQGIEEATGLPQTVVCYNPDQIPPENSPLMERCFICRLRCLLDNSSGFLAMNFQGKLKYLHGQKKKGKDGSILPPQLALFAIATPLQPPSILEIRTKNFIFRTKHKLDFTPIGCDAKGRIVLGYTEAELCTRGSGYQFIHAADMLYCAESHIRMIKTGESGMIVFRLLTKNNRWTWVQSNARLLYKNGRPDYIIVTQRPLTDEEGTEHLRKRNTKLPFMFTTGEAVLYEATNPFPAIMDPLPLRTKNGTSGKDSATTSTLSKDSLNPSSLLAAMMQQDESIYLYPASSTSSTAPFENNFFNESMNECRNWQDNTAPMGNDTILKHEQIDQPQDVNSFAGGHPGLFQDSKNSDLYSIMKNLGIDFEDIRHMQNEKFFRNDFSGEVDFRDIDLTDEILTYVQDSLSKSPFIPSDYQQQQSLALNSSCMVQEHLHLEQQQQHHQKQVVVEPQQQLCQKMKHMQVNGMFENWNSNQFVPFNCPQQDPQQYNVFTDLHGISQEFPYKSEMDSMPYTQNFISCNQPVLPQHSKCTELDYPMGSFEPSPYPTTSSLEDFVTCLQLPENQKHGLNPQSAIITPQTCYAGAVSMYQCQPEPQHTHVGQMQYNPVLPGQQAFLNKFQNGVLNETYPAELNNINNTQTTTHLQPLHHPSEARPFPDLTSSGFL
Chain of UniProt P62813 (whole entry, looked up): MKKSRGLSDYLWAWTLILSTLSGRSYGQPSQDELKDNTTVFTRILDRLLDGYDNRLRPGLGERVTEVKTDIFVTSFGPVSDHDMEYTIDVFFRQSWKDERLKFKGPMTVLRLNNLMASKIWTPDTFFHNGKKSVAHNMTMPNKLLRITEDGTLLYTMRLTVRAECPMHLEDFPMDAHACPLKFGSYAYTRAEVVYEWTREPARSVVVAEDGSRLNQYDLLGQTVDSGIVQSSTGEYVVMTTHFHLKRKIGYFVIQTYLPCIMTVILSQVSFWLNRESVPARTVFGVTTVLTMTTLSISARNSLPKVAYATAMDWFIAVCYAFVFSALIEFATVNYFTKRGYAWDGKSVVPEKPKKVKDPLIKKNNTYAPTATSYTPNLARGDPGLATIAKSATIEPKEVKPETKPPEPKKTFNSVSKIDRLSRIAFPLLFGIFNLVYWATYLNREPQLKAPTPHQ
Chain of UniProt P25963 (whole entry, unmodified, looked up): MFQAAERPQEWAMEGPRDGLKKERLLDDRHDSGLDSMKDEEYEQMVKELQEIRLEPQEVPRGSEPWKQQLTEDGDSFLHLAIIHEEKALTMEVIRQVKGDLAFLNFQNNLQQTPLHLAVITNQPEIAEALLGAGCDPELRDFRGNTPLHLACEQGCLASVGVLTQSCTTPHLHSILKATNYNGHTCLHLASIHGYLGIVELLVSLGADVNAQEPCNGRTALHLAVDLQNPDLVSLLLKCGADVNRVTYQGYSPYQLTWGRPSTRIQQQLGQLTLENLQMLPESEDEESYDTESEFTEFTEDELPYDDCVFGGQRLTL
Chain of UniProt Q5A6T5 (whole entry, looked up): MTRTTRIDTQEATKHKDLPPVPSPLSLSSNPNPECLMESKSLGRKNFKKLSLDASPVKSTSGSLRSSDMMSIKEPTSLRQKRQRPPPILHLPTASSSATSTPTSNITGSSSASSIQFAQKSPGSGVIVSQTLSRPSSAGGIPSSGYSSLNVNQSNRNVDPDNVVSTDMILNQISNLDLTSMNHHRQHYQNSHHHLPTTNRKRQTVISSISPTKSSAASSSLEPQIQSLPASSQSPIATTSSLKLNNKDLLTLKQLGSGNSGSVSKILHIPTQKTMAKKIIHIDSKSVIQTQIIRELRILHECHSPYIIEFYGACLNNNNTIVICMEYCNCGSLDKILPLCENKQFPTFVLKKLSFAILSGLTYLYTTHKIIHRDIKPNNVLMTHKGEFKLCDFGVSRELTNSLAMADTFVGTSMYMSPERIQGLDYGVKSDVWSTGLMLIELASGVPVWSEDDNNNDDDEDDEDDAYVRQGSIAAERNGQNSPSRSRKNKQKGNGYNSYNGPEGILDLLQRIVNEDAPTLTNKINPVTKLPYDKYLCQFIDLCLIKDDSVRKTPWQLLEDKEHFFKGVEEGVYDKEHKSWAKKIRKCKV

CCCCCCCCCCCCC/C=C/[C@@H](O)[C@H](CO)NC(=O)CCCCCCCCCCCCCCCCC
bound endogenous lipid (Protein SET (SET, Homo sapiens, UniProt Q01105); lipid binding, GFP pull-down LC-MS/MS; A549 overexpressing GFP-tagged protein; ER-targeted construct, unit not given; reference: vector-transfected cells): 4.9

Cc1cc2ccccc2c2ccc3ccccc3c12
fold change (Aryl hydrocarbon receptor; reporter gene, agonist, luciferase reporter; ZF-4; 123.5 µM; reference: vehicle control): 4.33

Nc1nnc(-c2ccccc2O)cc1N1CCN(Cc2ccc(OCCOCCNc3cccc4c3C(=O)N(C3CCC(=O)NC3=O)C4=O)c(F)c2)CC1 (centres unmarked)
decrease in protein level (SMARCA2 (Homo sapiens, UniProt P51531); immunoblot; mouse, NCI-H2126 xenograft, tumour lysate; dose not given, end of study; reference: vehicle): 34%

CC(=C/C(=O)O)/C=C/C=C(\C)C1C=C2C(C)(C)CCCC2(C)O1 (centres unmarked)
Pearson correlation coefficient (Rhodopsin (RHO, Homo sapiens, UniProt P08100, P23H); ER retention, immunostaining co-localization, refers to: opsin with calnexin; COS-7 transfected P23H; 10.00 µM): 0.65

O=C(COP(=O)(O)O)[C@@H](O)[C@H](O)[C@H](O)COP(=O)(O)O
thermal stability ratio (PRPS1 (Homo sapiens, UniProt P60891); thermal proteome profiling; HepG2 cell lysate; concentration not given, 57 over 37 °C, mean; reference: compound over control): 2.46

Nc1ncnc2c1ncn2[C@@H]1O[C@H](COP(=O)(O)OP(=O)(O)O)[C@@H](O)[C@H]1O
ΔH (GUK1; ITC; molar ratio 0.297): -2.96 kcal/mol

O=c1nc(SCc2cc(F)cc(C(F)(F)F)c2)nc(SCc2csc3ccc(Cl)cc23)[nH]1
mean decatenated DNA (TOP2B (Homo sapiens, UniProt Q02880); decatenation; 31.25 µM): 0.7%

Cc1ccc(NC(=O)c2ccccc2C#Cc2ccc(C#N)cc2N(C)C)cc1
normalized score (GABA-A receptor; alpha-1/beta-2/gamma-2 (Rattus norvegicus, UniProt P18508+P62813+P63138); membrane potential, agonist, QP-DHM primary screen; HEK293 expressing GABAA; 10 µM; direction not given): 0.283

Cc1cccc2ccc3ccccc3c12
maximum response (AHR (Homo sapiens, UniProt P35869); reporter gene, agonist, yeast LacZ reporter; Saccharomyces cerevisiae): 142 LacZ units

Nc1ncnc2c1ncn2[C@@H]1O[C@H](COP(=O)(O)CP(=O)(O)OP(=O)(O)O)[C@@H](O)[C@H]1O
specific binding (P2X purinoceptor 1 (P2RX1, Homo sapiens, UniProt P51575, M214A); saturation binding; HEK293; 130 nM): 1740 CCPM and 1720 CCPM and 3180 CCPM

CC(=O)Nc1ccc(O)cc1
chemical shift change (BRD4 (Homo sapiens, UniProt O60885); 19F NMR, refers to: tyrosine 65; 95 µM; reference: free protein): 0.009 ppm

O=C(Nc1cccc2[nH]ccc12)c1ccccc1
fibril formation (SNCA; ThT kinetics; concentration not given, together with: SNCA 2 µM): inhibited

O=C(COc1ccc(C2CCC(=O)NC2=O)cc1)NCCCCCCN1CCc2c(c3ccccc3n2Cc2ccc(C(=O)NO)cc2)C1 (centres unmarked)
degradation (HDAC6 (Homo sapiens, UniProt Q9UBN7); degrader, western blot; MM1.S; 1 µM, 24 h): 89%

[Cl-].[K+]
equilibrium GDP/GMP ratio (GUK1; enzyme activity, 1H NMR): 0.0874 and 0.202 and 0.211

O=C(O)C1CCCNC1 (centres unmarked)
normalised MST signal (SLC6A6 (Homo sapiens, UniProt P31641, G62A); binding, microscale thermophoresis; 122 nM, room temperature, together with: 50 nM labelled protein; higher = more binding): 0.0401

CCCCC[S+]([O-])c1n[nH]c(N)n1 (centres unmarked)
log fold enrichment (Huntingtin (HTT, Homo sapiens, UniProt P42858); binding, affinity selection mass spectrometry; reference: other proteins in batch): -0.0585

Oc1ccccc1-c1n[nH]cc1-c1ccnc2ccccc12
log2 fold change (Serine/threonine-protein kinase STE7 homolog (HST7, Candida albicans, UniProt Q5A6T5); kinase binding, MIB/MS competition; Candida albicans lysate; 10 µM; reference: DMSO, negative = stronger binding): -0.05

CC[C@@H]1[C@H](F)C(=O)N[C@@H]1COc1nccc2cc(C(N)=O)c(OC)cc12
inhibition (ATM (Homo sapiens, UniProt Q13315); ATP-site probe binding, ActivX profiling; THP-1 cell lysate; 0.04 mM): -2.1%

CN1CCN(c2cc(-c3ccncc3)c(-c3ccc4ccccc4c3)nn2)CC1
activation (VIPR2 (Homo sapiens, UniProt P41587); agonist, FLIPR; 12.5 µM): 0.6%

CCCCCCCCCCCCC/C=C/[C@@H](O)[C@H](CO)NC(=O)CCCCCCCCCCCCCCCCCCC
lipid fraction bound (Protein SET (SET, Homo sapiens, UniProt Q01105, Y135C); lipid binding, GFP pull-down LC-MS/MS; A549 overexpressing GFP-tagged protein; reference: eluate plus flow-through): 39.8%

Nc1ccc(C(=O)O)cc1
current density (BEST1, with wild-type BEST1 (Homo sapiens, UniProt O76090, D302A); ion current, whole-cell patch clamp; HEK293 co-expressing mutant and wild-type; concentration not given, voltage -40 mV): -7.11 pA/pF and -6.24 pA/pF and -9.04 pA/pF and -3.02 pA/pF and -3.11 pA/pF and -5.81 pA/pF

CN1C(=O)/C(=C2\Nc3ccccc3\C2=N/O)c2ccc(Br)cc21
fold change (Aryl hydrocarbon receptor; reporter gene, agonist, luciferase reporter; ZF-4; 20 µM; reference: vehicle control): 23.9

CC(C)C[C@H](NC(=O)CNC(=O)c1cc(Cl)ccc1Cl)B(O)O
reversibility (Proteasome component C5/PSMB8 (Homo sapiens, UniProt P20618+P28062); inhibitor, jump dilution; 1 h): 53 ± 7.6%

C[C@H]1CCN(c2nccc(-c3cnn4ncccc34)n2)C1
remaining binding (ABL1 (Homo sapiens, UniProt P00519, F317I); 1 µM; reference: control): 59% and 85%

CC[C@H](C)[C@H](NC(=O)[C@H](CCCNC(=N)N)NC(=O)[C@H](Cc1c[nH]cn1)NC(=O)[C@H](CCCNC(=N)N)NC(=O)[C@H](CC(=O)O)NC(=O)[C@@H](N)CC(=O)O)C(=O)N[C@@H](CCC(=O)O)C(=O)N[C@@H](CCC(=O)O)C(=O)N[C@@H](CCCCN)C(=O)N[C@@H](CCCNC(=N)N)C(=O)N[C@@H](CCCCN)C(=O)N[C@@H](CCCNC(=N)N)C(=O)N[C@H](C(=O)N[C@@H](Cc1ccc(O)cc1)C(=O)N[C@@H](CCC(=O)O)C(=O)N[C@H](C(=O)N[C@@H](Cc1ccccc1)C(=O)N[C@@H](CCCCN)C(=O)N[C@@H](CO)C(=O)N[C@H](C(=O)N[C@@H](CCSC)C(=O)N[C@@H](CCCCN)C(=O)N[C@@H](CCCCN)C(=O)N[C@@H](CO)C(=O)N1CCC[C@H]1C(=O)N[C@@H](Cc1ccccc1)C(=O)N[C@@H](CC(N)=O)C(=O)NCC(=O)N1CCC[C@H]1C(=O)O)[C@@H](C)CC)[C@@H](C)O)[C@@H](C)O
ΔH (NF-kappa-B inhibitor alpha (Homo sapiens, UniProt P25963); binding, ITC; pH 7.5, 293 K, 50 mM NaCl): -4.2 ± 0.2 kcal/mol

CC[C@H](C)[C@@H]1NC(=O)[C@H](C)NC(=O)[C@H]([C@@H](C)CC)NC(=O)[C@H](CCC(N)=O)NC(=O)[C@H](C)NC(=O)[C@H](CCCNC(=N)N)NC(=O)[C@H](C(C)C)NC(=O)[C@H](CC(C)C)NC(=O)[C@H](CCC(=O)O)NC(=O)[C@H](CCCNC(=N)N)NC(=O)CNC(=O)[C@@H](NC(=O)[C@H](CC(C)C)NC(=O)[C@H](CCCCN)NC(=O)[C@@H](NC(=O)[C@@H](NC(=O)[C@H](CCC(=O)O)NC(=O)[C@H](CCC(=O)O)NC(=O)[C@H](CCSC)NC(=O)[C@H](Cc2c[nH]c3ccccc23)NC(=O)[C@H](CO)NC(=O)[C@@H](N)CC(=O)O)C(C)C)[C@@H](C)CC)CSSC[C@@H]2NC(=O)[C@@H](NC(=O)[C@H](CCCCN)NC(=O)[C@H](CC(N)=O)NC(=O)[C@H](C)NC(=O)[C@H](CC(C)C)NC(=O)[C@H](C)NC(=O)[C@H](CO)NC(=O)[C@H](Cc3ccc(O)cc3)NC(=O)[C@H](CC(C)C)NC(=O)[C@H](CCC(N)=O)NC(=O)c3ccc(-c4c5ccc(=[N+](C)C)cc-5oc5cc(N(C)C)ccc45)c(C(=O)[O-])c3)CSSC[C@H](NC(=O)CNC(=O)[C@H](C(C)C)NC(=O)[C@H](Cc3c[nH]cn3)NC2=O)C(=O)N[C@@H]([C@@H](C)O)C(=O)N[C@@H](CCCCN)C(=O)N[C@@H](CCCNC(=N)N)C(=O)N[C@@H](CO)C(=O)N[C@@H](CC(C)C)C(=O)N[C@@H](C)C(=O)N[C@@H](CCCNC(=N)N)C(=O)N[C@@H](Cc2ccccc2)C(=O)N[C@H](C(=O)O)CSSC[C@@H](C(=O)NCC(=O)N[C@@H](CCSC)C(=O)N[C@@H](CO)C(=O)N[C@H](C(=O)N[C@@H](Cc2c[nH]c3ccccc23)C(=O)N[C@@H](CO)C(=O)O)[C@@H](C)O)NC1=O
koff slow phase (Relaxin receptor 1 (RXFP1, Homo sapiens, UniProt Q9HBX9, F76A/Y80A); NanoBRET dissociation; infinite dilution, together with: 100 nM relaxin): 0.000764 s⁻¹

NC/C(=C\F)COc1cccc(Cn2c(=S)[nH]c(=O)c3[nH]cnc32)c1
H2O2 concentration (Myeloperoxidase (MPO, Homo sapiens, UniProt P05164); H2O2 consumption, inhibitor, H2O2 electrode; 10 µM, 0.1 s): -0.762 µM

CCN1CCC[C@H]1CNC(=O)c1c(O)c(Cl)cc(Cl)c1OC
log2 fold change (Proto-oncogene Mas (Homo sapiens, UniProt P04201); β-arrestin recruitment, TANGO luminescence, refers to: MAS1; concentration not given; reference: basal luminescence): -0.106

O=C(Nc1cccc(O)c1O)c1cc2ccccc2oc1=O
ThT fluorescence (SNCA; fibril formation; 100 µM; reference: untreated): 10.7 ± 0.2%

Repeated from above:
Cc1cc2ccccc2c2ccc3ccccc3c12
fold change (Aryl hydrocarbon receptor; reporter gene, agonist, luciferase reporter; ZF-4; 123.5 µM; reference: vehicle control): 4.33

Nc1nnc(-c2ccccc2O)cc1N1CCN(Cc2ccc(OCCOCCNc3cccc4c3C(=O)N(C3CCC(=O)NC3=O)C4=O)c(F)c2)CC1 (centres unmarked)
decrease in protein level (SMARCA2 (Homo sapiens, UniProt P51531); immunoblot; mouse, NCI-H2126 xenograft, tumour lysate; dose not given, end of study; reference: vehicle): 34%
